Results gathered from unrelated publications.
Each numbered part is a random draw from the data of one study; scales do not carry over between parts. pEC50: −log10 of the molar value.
Sequence of UniProt P19525 (whole entry, looked up): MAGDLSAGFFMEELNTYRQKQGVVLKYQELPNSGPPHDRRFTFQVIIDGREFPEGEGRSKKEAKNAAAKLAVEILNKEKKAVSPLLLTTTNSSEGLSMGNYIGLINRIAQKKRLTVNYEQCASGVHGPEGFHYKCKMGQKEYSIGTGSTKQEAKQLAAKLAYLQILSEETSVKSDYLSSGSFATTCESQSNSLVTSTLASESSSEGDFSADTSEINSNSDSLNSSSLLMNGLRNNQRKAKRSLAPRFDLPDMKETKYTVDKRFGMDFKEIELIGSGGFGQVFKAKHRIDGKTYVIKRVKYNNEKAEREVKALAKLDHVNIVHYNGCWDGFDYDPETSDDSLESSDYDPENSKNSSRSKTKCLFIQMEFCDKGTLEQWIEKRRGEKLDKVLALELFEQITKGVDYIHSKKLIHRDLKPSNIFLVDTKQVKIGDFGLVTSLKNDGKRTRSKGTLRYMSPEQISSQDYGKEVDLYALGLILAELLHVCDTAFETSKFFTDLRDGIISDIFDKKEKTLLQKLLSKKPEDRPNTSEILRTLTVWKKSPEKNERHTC
Sequence of UniProt Q96GD4 (whole entry, looked up): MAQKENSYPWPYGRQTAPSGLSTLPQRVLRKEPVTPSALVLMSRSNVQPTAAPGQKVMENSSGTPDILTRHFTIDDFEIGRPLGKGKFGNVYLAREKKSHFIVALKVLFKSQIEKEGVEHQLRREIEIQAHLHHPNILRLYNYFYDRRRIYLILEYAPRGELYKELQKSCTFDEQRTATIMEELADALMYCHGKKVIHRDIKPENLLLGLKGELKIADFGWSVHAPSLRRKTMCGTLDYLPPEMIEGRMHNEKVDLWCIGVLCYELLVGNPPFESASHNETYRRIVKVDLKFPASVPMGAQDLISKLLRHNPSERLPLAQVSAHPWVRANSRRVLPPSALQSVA
Sequence of UniProt P16591 (whole entry, looked up): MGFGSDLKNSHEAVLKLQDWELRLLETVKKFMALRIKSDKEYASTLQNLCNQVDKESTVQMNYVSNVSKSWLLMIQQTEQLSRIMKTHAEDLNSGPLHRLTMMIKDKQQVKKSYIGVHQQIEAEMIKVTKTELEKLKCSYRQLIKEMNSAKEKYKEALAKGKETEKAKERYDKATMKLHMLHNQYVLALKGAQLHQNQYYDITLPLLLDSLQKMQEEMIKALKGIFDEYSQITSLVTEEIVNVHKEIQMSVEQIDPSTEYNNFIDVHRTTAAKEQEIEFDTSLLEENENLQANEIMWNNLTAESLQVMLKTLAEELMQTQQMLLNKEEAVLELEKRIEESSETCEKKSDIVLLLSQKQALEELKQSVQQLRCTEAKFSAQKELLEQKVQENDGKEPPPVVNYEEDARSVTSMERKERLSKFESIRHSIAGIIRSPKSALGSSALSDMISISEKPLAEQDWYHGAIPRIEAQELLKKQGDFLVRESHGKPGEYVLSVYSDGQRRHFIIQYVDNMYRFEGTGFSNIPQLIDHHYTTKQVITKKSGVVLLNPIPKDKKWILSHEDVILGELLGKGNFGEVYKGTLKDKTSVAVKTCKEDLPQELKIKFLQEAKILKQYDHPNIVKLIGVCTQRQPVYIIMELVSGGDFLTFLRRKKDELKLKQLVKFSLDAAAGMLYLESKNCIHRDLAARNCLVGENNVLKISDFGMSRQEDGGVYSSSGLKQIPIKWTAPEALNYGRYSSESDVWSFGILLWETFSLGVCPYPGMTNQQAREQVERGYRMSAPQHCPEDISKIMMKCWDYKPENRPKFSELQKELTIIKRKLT
Sequence of UniProt Q86Y07 (whole entry, looked up): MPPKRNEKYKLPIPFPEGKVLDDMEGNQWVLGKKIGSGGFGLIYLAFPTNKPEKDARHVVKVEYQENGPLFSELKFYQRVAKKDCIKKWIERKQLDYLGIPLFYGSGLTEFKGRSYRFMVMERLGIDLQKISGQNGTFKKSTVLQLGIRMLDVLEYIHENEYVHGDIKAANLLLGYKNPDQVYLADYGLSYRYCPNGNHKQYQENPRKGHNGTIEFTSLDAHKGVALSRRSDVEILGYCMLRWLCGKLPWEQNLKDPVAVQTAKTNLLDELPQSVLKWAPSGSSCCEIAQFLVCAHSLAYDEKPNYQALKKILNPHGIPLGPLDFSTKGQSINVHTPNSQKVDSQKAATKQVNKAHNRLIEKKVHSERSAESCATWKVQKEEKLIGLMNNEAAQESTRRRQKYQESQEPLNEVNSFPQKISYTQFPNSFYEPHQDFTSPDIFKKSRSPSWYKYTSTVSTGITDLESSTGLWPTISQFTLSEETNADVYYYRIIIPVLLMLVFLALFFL
Sequence of UniProt P07949 (whole entry, unmodified, looked up): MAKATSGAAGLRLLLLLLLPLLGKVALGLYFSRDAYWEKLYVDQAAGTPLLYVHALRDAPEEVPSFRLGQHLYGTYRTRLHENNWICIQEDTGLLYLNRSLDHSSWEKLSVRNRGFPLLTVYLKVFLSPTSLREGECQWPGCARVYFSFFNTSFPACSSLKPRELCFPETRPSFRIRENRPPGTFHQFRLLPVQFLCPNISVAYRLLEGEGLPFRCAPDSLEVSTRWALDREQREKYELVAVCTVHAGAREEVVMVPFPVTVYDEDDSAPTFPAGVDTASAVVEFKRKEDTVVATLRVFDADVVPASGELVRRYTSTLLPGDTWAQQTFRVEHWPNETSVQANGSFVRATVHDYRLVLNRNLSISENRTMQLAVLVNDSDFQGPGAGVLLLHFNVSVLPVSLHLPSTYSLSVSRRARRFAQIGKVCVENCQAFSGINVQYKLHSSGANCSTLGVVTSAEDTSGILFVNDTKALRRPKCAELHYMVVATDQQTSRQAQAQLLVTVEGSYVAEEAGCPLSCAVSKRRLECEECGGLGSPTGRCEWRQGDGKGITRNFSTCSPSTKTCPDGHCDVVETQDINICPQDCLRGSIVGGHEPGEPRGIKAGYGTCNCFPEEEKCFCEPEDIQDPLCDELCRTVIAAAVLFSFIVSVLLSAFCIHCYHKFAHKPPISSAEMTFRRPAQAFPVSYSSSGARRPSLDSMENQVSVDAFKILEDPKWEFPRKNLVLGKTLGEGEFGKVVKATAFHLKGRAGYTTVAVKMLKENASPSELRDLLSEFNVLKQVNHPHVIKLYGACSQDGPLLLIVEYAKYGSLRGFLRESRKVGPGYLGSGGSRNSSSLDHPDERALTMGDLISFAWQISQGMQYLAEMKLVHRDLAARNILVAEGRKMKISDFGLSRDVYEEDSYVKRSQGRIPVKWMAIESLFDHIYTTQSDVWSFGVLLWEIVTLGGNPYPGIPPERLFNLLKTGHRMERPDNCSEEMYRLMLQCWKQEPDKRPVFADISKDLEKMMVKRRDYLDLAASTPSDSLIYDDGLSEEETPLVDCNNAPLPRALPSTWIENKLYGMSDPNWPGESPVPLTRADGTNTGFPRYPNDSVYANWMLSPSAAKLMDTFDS
Sequence of UniProt Q9H422 (whole entry, looked up): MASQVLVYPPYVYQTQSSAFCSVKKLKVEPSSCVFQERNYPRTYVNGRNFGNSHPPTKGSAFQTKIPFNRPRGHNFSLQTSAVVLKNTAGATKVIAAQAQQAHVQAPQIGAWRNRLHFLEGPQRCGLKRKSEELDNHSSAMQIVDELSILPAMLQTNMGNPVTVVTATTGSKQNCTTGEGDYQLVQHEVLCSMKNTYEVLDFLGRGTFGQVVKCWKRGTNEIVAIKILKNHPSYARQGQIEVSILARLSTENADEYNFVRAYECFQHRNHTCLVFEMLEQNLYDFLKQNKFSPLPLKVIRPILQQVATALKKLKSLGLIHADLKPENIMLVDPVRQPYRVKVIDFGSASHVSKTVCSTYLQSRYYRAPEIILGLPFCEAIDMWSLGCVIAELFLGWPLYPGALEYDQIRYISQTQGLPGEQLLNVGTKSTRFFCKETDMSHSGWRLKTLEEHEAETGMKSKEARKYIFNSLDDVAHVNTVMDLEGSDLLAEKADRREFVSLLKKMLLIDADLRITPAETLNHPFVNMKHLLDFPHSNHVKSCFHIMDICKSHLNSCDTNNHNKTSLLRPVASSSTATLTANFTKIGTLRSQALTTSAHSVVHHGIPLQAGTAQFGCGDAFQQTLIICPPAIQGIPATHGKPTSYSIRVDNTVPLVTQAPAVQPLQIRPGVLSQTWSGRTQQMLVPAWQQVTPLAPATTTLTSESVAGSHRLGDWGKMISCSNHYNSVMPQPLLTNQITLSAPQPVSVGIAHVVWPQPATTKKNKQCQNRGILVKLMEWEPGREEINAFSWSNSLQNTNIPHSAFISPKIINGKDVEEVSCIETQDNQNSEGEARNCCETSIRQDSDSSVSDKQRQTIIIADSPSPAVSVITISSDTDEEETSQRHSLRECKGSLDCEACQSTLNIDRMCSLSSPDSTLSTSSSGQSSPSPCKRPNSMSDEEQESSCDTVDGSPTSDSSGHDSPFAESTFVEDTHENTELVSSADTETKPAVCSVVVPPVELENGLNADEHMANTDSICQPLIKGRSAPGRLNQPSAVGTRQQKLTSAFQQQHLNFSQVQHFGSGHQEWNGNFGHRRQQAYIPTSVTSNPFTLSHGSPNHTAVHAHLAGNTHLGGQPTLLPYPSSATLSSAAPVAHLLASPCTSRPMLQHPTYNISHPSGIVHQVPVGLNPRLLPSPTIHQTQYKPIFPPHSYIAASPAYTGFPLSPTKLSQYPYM

Series 1 — cell line: mouse MPNST tumor cells; technique: high-content nuclear imaging; measured: cell number; concentration: 10 µM; time: 12 h; notes: mean of 2 replicates; baseline: plate mean; reading: higher = more cells
SMILES | nuclei count [z-score]
O=c1cc(-c2ccc(O)c(O)c2)oc2cc(O)cc(O)c12 | 1.98
O=C1c2c(O)cccc2Cc2cccc(O)c21 | 0.511
CCCN(CC1CC1)c1nc(C)nc(Nc2c(Cl)cc(Cl)cc2Cl)c1Cl | -0.0029
COc1cc(C(=O)NCC2(N(C)C)CCCC2)cc(OC)c1OCc1ccccc1 | 4.7
Cc1cc(C)c(S(=O)(=O)N(Cc2ccc(-c3cccc(S(C)(=O)=O)c3)cc2)Cc2ccc(C(F)(F)F)o2)c(C)c1 | 1.69
C=CC(N)CCC(=O)O (stereo not drawn) | -0.0593
NC(=O)c1ccc(N(C(N)=O)c2c(F)cccc2F)nc1-c1ccc(F)cc1F | 0.868

Series 2 — action: agonist
Target: Beta-1 adrenergic receptor (ADRB1, Homo sapiens, UniProt P08588)
Sequence of UniProt P08588 (whole entry, looked up): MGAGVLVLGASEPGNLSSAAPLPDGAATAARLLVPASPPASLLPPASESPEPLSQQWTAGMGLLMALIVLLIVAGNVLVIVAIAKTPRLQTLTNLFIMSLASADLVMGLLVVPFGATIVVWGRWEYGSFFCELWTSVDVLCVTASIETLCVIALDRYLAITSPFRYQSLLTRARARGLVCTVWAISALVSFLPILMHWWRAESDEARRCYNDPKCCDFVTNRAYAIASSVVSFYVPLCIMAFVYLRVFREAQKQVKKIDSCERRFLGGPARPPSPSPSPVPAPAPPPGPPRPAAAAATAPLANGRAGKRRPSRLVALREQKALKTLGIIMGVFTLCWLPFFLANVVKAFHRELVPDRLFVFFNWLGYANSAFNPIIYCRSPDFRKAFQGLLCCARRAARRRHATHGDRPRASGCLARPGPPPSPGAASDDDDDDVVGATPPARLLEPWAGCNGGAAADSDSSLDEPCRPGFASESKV
SMILES | pEC50
Cc1nc2c(c(N[C@@H]3COCC[C@H]3OCc3ccccn3)n1)CCC2 | ≤ 4.00
CC#CCn1cc2c3c(cccc31)[C@H](CC(C)C)N[C@H](C(=O)NCCNC(C)=O)C2 | ≤ 4.00
Cc1ncc(-c2ccc(F)c3cccnc23)nc1C | ≤ 4.00
CC(=O)Oc1ccc2c(c1)Oc1cc(OC(C)=O)ccc1C21OC(=O)c2cc(C(=O)O)ccc21 | ≤ 4.00
Cc1noc2c(-c3cccnc3N3CC(O)C3)cc(-c3ccccc3)nc12 | ≤ 4.00

Series 3 — observed: enzyme activity; action: inhibitor; concentration: 0.5 µM; baseline: control
Target: Homeodomain-interacting protein kinase 4 (HIPK4, Homo sapiens, UniProt Q8NE63)
Construct (Q8NE63 1-616): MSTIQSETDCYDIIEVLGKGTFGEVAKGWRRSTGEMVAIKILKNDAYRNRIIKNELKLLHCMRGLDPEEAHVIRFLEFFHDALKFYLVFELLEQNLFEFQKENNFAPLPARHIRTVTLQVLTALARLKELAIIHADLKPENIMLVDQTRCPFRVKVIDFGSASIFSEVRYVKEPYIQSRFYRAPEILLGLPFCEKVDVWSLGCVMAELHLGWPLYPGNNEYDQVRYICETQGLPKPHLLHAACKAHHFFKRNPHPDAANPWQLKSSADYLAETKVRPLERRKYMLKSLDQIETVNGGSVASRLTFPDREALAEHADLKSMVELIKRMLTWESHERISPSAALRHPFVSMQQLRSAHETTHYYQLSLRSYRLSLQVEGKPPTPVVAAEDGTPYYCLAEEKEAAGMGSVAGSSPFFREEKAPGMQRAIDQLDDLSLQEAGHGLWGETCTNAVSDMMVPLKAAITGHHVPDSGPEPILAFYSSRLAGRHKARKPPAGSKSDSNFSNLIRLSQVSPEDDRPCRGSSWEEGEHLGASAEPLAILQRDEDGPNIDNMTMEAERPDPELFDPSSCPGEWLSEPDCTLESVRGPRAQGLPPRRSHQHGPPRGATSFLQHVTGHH
Compound | remaining activity [%]
N#CC(C#N)=C(N)/C(C#N)=C/c1ccc(O)cc1 | 99.7
CN(C)c1ccc(C=C2C(=O)Nc3ccccc32)cc1 | 98.3
O=S(=O)(c1cccc2cnccc12)N1CCCNCC1 | 103
NCCNc1ncc(C(N)=O)c(Nc2cccc(C(F)(F)F)c2)n1 | 96.4
O=C1NC(=O)C(c2cn(CCCn3ccnc3)c3ccccc23)=C1Nc1ccccc1 | 90.7
COc1ccc(C(=O)Nc2sc3c(c2C(N)=O)CCCC3)cc1OC | 103
CO[C@H]1C[C@@H]2CC[C@@H](C)[C@@](O)(O2)C(=O)C(=O)N2CCCC[C@H]2C(=O)O[C@H]([C@H](C)C[C@@H]2CC[C@@H](O)[C@H](OC)C2)CC(=O)[C@H](C)/C=C(\C)[C@@H](O)[C@@H](OC)C(=O)[C@H](C)C[C@H](C)/C=C/C=C/C=C/1C | 92.9
Oc1ccc(-c2nc(-c3ccncc3)c(-c3ccc(F)cc3)[nH]2)cc1 | 89.7
CCOC(=O)c1c(C)[nH]c(/C=C2\C(=O)Nc3ccccc32)c1C | 90.2
Cn1c2ccccc2c2c3c(c4c5ccccc5n(CCC#N)c4c21)CNC3=O | 103
OCC(O)CCON=C1C(c2c(O)[nH]c3ccccc23)=Nc2ccccc21 (stereo not drawn) | 108
COc1cc2ncnc(Nc3ccc(Oc4ccccc4)cc3)c2cc1OC | 91.8
Cc1nc(-c2ccccc2)c(-c2ccncc2)o1 | 102
Nc1ccc2ncnc(NCCc3ccc(Oc4ccccc4)cc3)c2c1 | 97.4
COc1ccc(CNC(=O)Nc2ncc([N+](=O)[O-])s2)cc1 | 103

Series 4 — technique: competition with immobilised ligand; concentration: 1 µM
SMILES: Cc1c(NC(=O)c2cc(C(N)=O)nc3cc(F)ccc23)c(C(F)(F)F)nn1Cc1ccc(C#N)cc1
target | observed | remaining binding
Cyclin-dependent kinase 14 (CDK14, Homo sapiens, UniProt O94921) | cell-free assay | 100%
Dual specificity mitogen-activated protein kinase kinase 6 (MAP2K6, Homo sapiens, UniProt P52564) | cell-free assay | 100%
Tyrosine-protein kinase JAK3, JH1 (JAK3, Homo sapiens, UniProt P52333) | cell-free assay | 90%
Casein kinase I isoform epsilon (CSNK1E, Homo sapiens, UniProt P49674) | cell-free assay | 100%
Serine/threonine-protein kinase VRK2 (VRK2, Homo sapiens, UniProt Q86Y07) | cell-free assay | 72%
Serine/threonine-protein kinase TNNI3K (TNNI3K, Homo sapiens, UniProt Q59H18) | cell-free assay | 100%
Calcium/calmodulin-dependent protein kinase type II subunit gamma (CAMK2G, Homo sapiens, UniProt Q13555) | binding | 86%
Homeodomain-interacting protein kinase 3 (HIPK3, Homo sapiens, UniProt Q9H422) | cell-free assay | 85%
MAP kinase-interacting serine/threonine-protein kinase 1 (MKNK1, Homo sapiens, UniProt Q9BUB5) | cell-free assay | 68%
Serine/threonine-protein kinase Sgk2 (SGK2, Homo sapiens, UniProt Q9HBY8) | cell-free assay | 80%
Interferon-induced, double-stranded RNA-activated protein kinase (EIF2AK2, Homo sapiens, UniProt P19525) | cell-free assay | 100%
Wee1-like protein kinase 2 (WEE2, Homo sapiens, UniProt P0C1S8) | cell-free assay | 100%
Aurora kinase B (AURKB, Homo sapiens, UniProt Q96GD4) | cell-free assay | 72%
Proto-oncogene tyrosine-protein kinase receptor Ret (RET, Homo sapiens, UniProt P07949, M918T) | cell-free assay | 96%
Tyrosine-protein kinase Fer (FER, Homo sapiens, UniProt P16591) | cell-free assay | 99%
Cyclin-dependent kinase 15 (CDK15, Homo sapiens, UniProt Q96Q40) | cell-free assay | 100%
Vascular endothelial growth factor receptor 2 (KDR, Homo sapiens, UniProt P35968) | cell-free assay | 80%
Ephrin type-B receptor 2 (EPHB2, Homo sapiens, UniProt P29323) | cell-free assay | 100%

Excerpt of the above (series 1):
SMILES | nuclei count [z-score]
O=C1c2c(O)cccc2Cc2cccc(O)c21 | 0.511
CCCN(CC1CC1)c1nc(C)nc(Nc2c(Cl)cc(Cl)cc2Cl)c1Cl | -0.0029
COc1cc(C(=O)NCC2(N(C)C)CCCC2)cc(OC)c1OCc1ccccc1 | 4.7
Cc1cc(C)c(S(=O)(=O)N(Cc2ccc(-c3cccc(S(C)(=O)=O)c3)cc2)Cc2ccc(C(F)(F)F)o2)c(C)c1 | 1.69
C=CC(N)CCC(=O)O (stereo not drawn) | -0.0593
NC(=O)c1ccc(N(C(N)=O)c2c(F)cccc2F)nc1-c1ccc(F)cc1F | 0.868
